Published values from different studies.
Compare with care: the assays were run in different laboratories. Several values in a cell are separate wells, animals, samples, runs or records. Numbers after ± are the reported error.

COc1ccc(C=CC(=O)O)cc1OS(=O)(=O)O
plasma concentration (human plasma; median): 424 nM

N#CCNC(=O)c1ccc(-c2ccnc(Nc3ccc(N4CCOCC4)cc3)n2)cc1
median half-life change (healthy volunteers, plasma; dose not given, together with: rifampin single-dose; baseline: compound alone): no effect

COc1cccc(-c2n[nH]c(SCc3ccccn3)n2)c1OC
AUC(0-last) (Sprague-Dawley rat, female, plasma; oral gavage, 30 mg/kg): 73500 ng·h/mL

CCc1cc(OC)c2nccc(N3CCc4c(cc(Cn5ccnc5)cc4-c4cn(C)nc4C(F)(F)F)C3=O)c2c1
AUC extrapolated fraction (Sprague Dawley rat, male, plasma; intravenous, 3 mg/kg): 0.3%

CC[C@@](N)(c1cnc(C(F)(F)F)c(Cl)c1)c1c2ncn(C3CC3)c(=O)c2nn1C
CL (rat Sprague-Dawley male, plasma; intravenous, 1 mg/kg): 0.466 ± 0.059 mL/min/kg

CCN1/C(=C/C(C)=O)Sc2ccc(F)cc21
mean blood pressure (cynomolgus monkey; oral, 100 mg/kg, 2 h post-dose): 86 ± 4 mmHg

CCOc1c([C@H](C)n2nc(C)c3c(N)ncnc32)cc(Cl)c(F)c1[C@@H]1CNC(=O)C1
Cmax (patients, monotherapy; oral, 5 mg once daily, cycle 1 day 15): 690 nM

O=C(O)/C=C/c1ccccc1
plasma concentration (human plasma; mean, both sexes): 5990 nM

CCO[C@H]1CCN(Cc2c(OC)cc(C)c3[nH]ccc23)[C@H](c2ccc(C(=O)O)cc2)C1
total half-life (human severe hepatic impairment, plasma; oral, 200 mg single dose, geometric mean): 1590 min

C[C@H]1Oc2cc(cnc2N)-c2c(nn(C)c2C#N)CN(C)C(=O)c2ccc(F)cc21
AUCtau, dose-normalized (human patients, plasma; oral, dose not given, cycle 2 day 1, median, together with: avelumab): 61 ng·h/mL/mg

N#CC[C@H](C1CCCC1)n1cc(-c2ncnc3[nH]ccc23)cn1
V/F (children, plasma; oral, mean): 59.4 ± 29.1 L

CC1CCNc2c(C(=O)NC/C=C/S(C)(=O)=O)cccc21 (stereo not drawn)
serum CREAT (uninfected mouse, serum; 300 mg/kg): 0.36 mg/dL and 0.43 mg/dL

CN1C(=O)[C@@H](NC(=O)c2nnc(Cc3ccccc3)[nH]2)COc2cccnc21
participants with any serious TEAE (phase I single ascending dose; human, male and female; oral, 10 mg, fasted): 0%

Cc1ccc([C@@H]2O[C@H](CO)[C@@H](O)[C@H](O)[C@H]2O)cc1Cc1ccc(-c2ccc(F)cc2)s1
urinary calcium excretion change (Japanese type 2 diabetes patients; 25 mg, day 15, 24 h urine collection; baseline: baseline): 7.65 mg

NC[C@H]1O[C@H](O[C@H]2[C@H](O)[C@@H](O[C@H]3O[C@H](CO)[C@@H](O)[C@H](N)[C@H]3O)[C@H](N)C[C@@H]2N)[C@H](N)C[C@@H]1O
amount permeated (starch gel membrane permeability; Gram-negative envelope surrogate; 200 µM, 60 min, pH 7.4): 1.52 nmol

N#Cc1ccc2c(c1)[C@H]1CCCN(C(=O)c3ccc4[nH]cnc4c3)[C@H]1C2
total testosterone level (human males; 80 mg, day 15): 12.4 nmol/L

Cc1nc2ccc(OCc3ccc(C(F)(F)F)cc3)cc2[nH]1
tissue/plasma ratio (male Balb/c mice, liver; oral, 10 mg/kg, 72 h; baseline: tissue over plasma): 6 ± 1.6

CCc1cc(C(=O)NC)c2nccc(N3CCc4c(cc(Cn5ccnc5)cc4-c4cn(C)nc4C(F)(F)F)C3=O)c2c1
blood Neut change (Sprague Dawley rats; oral, 100 mg/kg twice daily, 7 days; baseline: vehicle): -54.3%

OC[C@H]1O[C@@H](c2ccc(F)c(Cc3cc4ccccc4s3)c2)[C@H](O)[C@@H](O)[C@@H]1O
hypoglycaemia-related adverse event (Japanese patients, type 1 diabetes; oral, 100 mg/day, onset day 6; baseline: patients): 3%

OC[C@H](Cc1cccc(O)c1)[C@H](CO)Cc1cccc(O)c1
plasma concentration (human plasma; mean, both sexes): 830 nM

Cc1cc(Nc2cc3ncccc3c(N[C@@H]3C[C@H]4CC[C@@H](C3)N4CCC#N)n2)n[nH]1
sneezing incidence (healthy human subjects; oral, 100 mg, 2 weeks, single ascending dose): 0%

CC(C)(C(=O)N1CCOc2c(C#N)cncc2C1)C(F)F
subjects with cardiac disorder TEAE (human, both sexes; oral, 40 mg single dose): 16.7%

O=C(/C=C/c1ccc(O)c(O)c1)O[C@@H]1C[C@](O)(C(=O)O)C[C@@H](O)[C@H]1O
plasma concentration (human plasma; median, both sexes): 18.9 nM

COc1ccc2c(=O)n(C)c(-c3ccccc3)nc2c1
tissue/plasma ratio (Sprague-Dawley rat, male, large intestine; oral, 30 mg/kg, 4 h; baseline: large intestine over plasma): 7630

Cc1cc(-c2nccc3c2ccn3CC(=O)Nc2ccc(-c3cnccn3)cn2)ccn1
subjects with Dizziness TEAEs (human; SAD part, single 7 mg dose): 0%

CNCc1ccc(-c2[nH]c3cc(F)cc4c3c2CCNC4=O)cc1
patients with adverse event (measured: dyspnea; human patients; oral, 600 mg twice daily, grade 2): 3.8%

C[C@@H](N)C1CCN(S(=O)(=O)c2cccc3cnccc23)CC1
TEAE incidence (measured: Tachycardia; healthy volunteers; 25 mg, fasted): 0%

COc1ccc(C(=O)O)c(O)c1
plasma concentration (human plasma; mean): 209 nM

Cc1cc(C)c(CNC(=O)c2cc(Cl)c3c(c2C)O[C@@](C)([C@H]2CC[C@H](N(C)C)CC2)O3)c(=O)[nH]1
back pain grade ≥3 (human relapsed/refractory NHL; oral, 200 mg once daily, onset after cycle 1 day 1): 4.2%

CCc1nc(C(N)=O)c(Nc2ccc(N3CCC(N4CCN(C)CC4)CC3)c(OC)c2)nc1NC1CCOCC1
accumulation ratio (AUC) (Japanese patients, plasma; oral, 200 mg, cycle 1 day 28, multiple doses, median; baseline: single dose): 8.83

Cc1c2oc3c(C)ccc(C(=O)N[C@@H]4C(=O)N[C@H](C(C)C)C(=O)N5CCC[C@H]5C(=O)N(C)CC(=O)N(C)[C@@H](C(C)C)C(=O)O[C@@H]4C)c3nc-2c(C(=O)N[C@@H]2C(=O)N[C@H](C(C)C)C(=O)N3CCC[C@H]3C(=O)N(C)CC(=O)N(C)[C@@H](C(C)C)C(=O)O[C@@H]2C)c(N)c1=O
minimum plasma concentration (LC-MS; children with cancer, plasma; dose not given, 24 h): 0.7 µg/L

O=C(COc1ccc(Cl)cc1)NC12CC(c3nnc([C@H]4C[C@@H](OC(F)(F)F)C4)o3)(C1)C2
treatment-emergent adverse events (measured: Presyncope; healthy humans, both sexes; oral, dose not given, single ascending dose, fasted; baseline: subjects): 5.6%

CC(C)c1nc(CN(C)C(=O)N[C@@H](CCN2CCOCC2)C(=O)N[C@H](CC[C@H](Cc2ccccc2)NC(=O)OCc2cncs2)Cc2ccccc2)cs1
drug-related TEAE (human; oral, 150 mg, drug interaction trial): 23.1%

O=C(O)c1ccc(OS(=O)(=O)O)c(O)c1
plasma concentration (human plasma; mean): 125 nM

CNC(=O)c1cc(Oc2ccc(NC(=O)Nc3cc(C(C)(C)C)nn3-c3ccc4ncccc4c3)c(F)c2)ccn1
patients with musculoskeletal disorder AE (measured: worst grade 2; human; oral, dose not given, cycles 1 and 2, Low Cmax subgroup): 6%

C[C@H]1CN(C(=O)CC#N)[C@]12CCN(c1ncnc3[nH]ccc13)C2
AUC(0-last) (healthy Japanese males, plasma; oral, 5 mg single dose): 167 ng·h/mL

[H]/N=C(/N)N[C@H]1[C@H](O)[C@@H](O)[C@H](O[C@@H]2O[C@@H](C)[C@](O)(C=O)[C@H]2O[C@@H]2O[C@@H](CO)[C@H](O)[C@@H](O)[C@@H]2NC)[C@@H](N/C(N)=N\[H])[C@@H]1O
amount permeated (starch gel membrane permeability; Gram-negative envelope surrogate; 200 µM, 90 min, pH 7.4): 3.06 nmol

C=CC(=O)N1CCC(c2ccc(C(N)=O)c(-c3ccc(Oc4ccccc4)cc3)n2)CC1
incidence of serious cerebral infarction (CTCAE 4.03; patients with relapsed/refractory MCL; oral, dose not given): 0.9%

O=C(c1cccnc1-c1ccncc1)N1CCC(O)(Cc2ccccc2)CC1
AUClast (healthy Japanese adults, plasma; oral, 100 mg twice daily, day 1): 232 ng·h/mL

Cc1noc(C)c1Cn1cc(N2C(=O)CN(Cc3cccc(O)c3)C2=O)cn1
remaining parent (pooled rat liver microsomes Sprague-Dawley; 1 µM, 120 min, pH 7.4): 49 % peak area

CC(=O)O[C@H]1C(=O)[C@@]2(C)[C@H]([C@H](OC(=O)c3ccccc3)[C@]3(O)C[C@H](OC(=O)[C@H](O)[C@@H](NC(=O)c4ccccc4)c4ccccc4)C(C)=C1C3(C)C)[C@]1(OC(C)=O)CO[C@@H]1C[C@@H]2O
adverse event incidence (measured: lymphocyte count decreased; patients with advanced solid tumours; intravenous, dose not given, grade 3 and 4, possibly related to drug): 19%

COc1cc(CCC(=O)O)ccc1O[C@@H]1O[C@H](C(=O)O)[C@@H](O)[C@H](O)[C@H]1O
plasma concentration (human plasma; median): 297 nM

C=CC(=O)Nc1cc(Nc2nccc(-c3cn(C)c4ccccc34)n2)c(OC)cc1N(C)CCN(C)C
recovery (storage stability; human dried blood spot; 10 d, on ice, LQC level): 70.4%

CCc1cc2ncc(CN3CCN(c4ccc(C(=O)NC)nc4)CC3)cc2[nH]c1=O
Neutrophils count ratio (female rat, blood; oral, 25 mg/kg/day, 4 weeks; baseline: vehicle control): 0.55

O=C1CCC(N2Cc3cc(CO)c(F)cc3C2=O)C(=O)N1 (stereo not drawn)
plasma concentration (cynomolgus monkey, male; oral, 0.3 mg/kg parent drug, 6 h): 0.25 ± 0.22 ng/mL

CCN1CCN(Cc2ccc(NC(=O)c3ccc(C)c(NC(=O)c4cncc(-c5cccs5)c4)c3)cc2C(F)(F)F)CC1
mean plasma concentration (LC-MS/MS; C57BL/6 mouse, plasma; intraperitoneal, 10 mg/kg single dose, 0.25 h): 0.487 µg/mL

O=C(O)CCC(=O)O.[2H]C([2H])([2H])Oc1cc(C)c2[nH]ccc2c1CN1CC[C@@H](C2CC2)C[C@H]1c1ccc(C(=O)O)cc1
subjects with TEAE Anemia (multiple ascending dose; healthy Chinese subjects; 200 mg once daily): 0%

O=C(NC[C@H]1CN(c2ccc(N3CCOCC3=O)cc2)C(=O)O1)c1ccc(Cl)s1
typical population clearance (Phoenix NLME, model B; human, atrial fibrillation patients, plasma; oral): 113 mL/min

COc1ccc2nc([S+]([O-])Cc3ncc(CO)c(OC)c3C)[nH]c2c1 (stereo not drawn)
R/S enantiomer ratio fold change (human, dried plasma spots; 2 h, together with: fluvoxamine and voriconazole; baseline: inhibited over baseline): 0.34

OCCOCc1ccc(-c2noc(-c3ccc(OCC[18F])c(C(F)(F)F)c3)n2)cc1
absorbed radiation dose (Macaca mulatta, gallbladder; female phantom OLINDA/EXM): 0.31 mSv/MBq

CNC(=O)c1ccc(-c2cnc3ncc(Cc4ccc5ncccc5c4)n3n2)cc1F
patients with adverse event (measured: Anemia, all grades; hepatocellular carcinoma patients; oral, 600 mg twice daily, expansion cohort, any causality): 9%

CCn1cc(C(=O)O)c(=O)c2cc(F)c(N3CCNCC3)cc21
amount permeated (starch gel membrane permeability; Gram-negative envelope surrogate; 200 µM, 10 min, pH 7.4): 0.92 nmol

O=S(=O)(O)Oc1c(O)cccc1O
plasma concentration (human plasma; median): 317 nM

Cc1nc2cccc(OCC(C)(C)C(=O)NC(C)C)c2c(N)c1C(=O)O
AUC(0-last) ratio (Sprague-Dawley rat, plasma; oral, 10 mg/kg, day 1; baseline: female over male): 2.74 ± 0.56

CC(C)=CCc1cc2c(cc1O)O[C@H](c1ccc(O)cc1)CC2=O
species difference in glucuronidation CLint (liver microsomes; seven species incl. human): ~20.1 fold

C[C@H]1[C@H](NC(=O)/C(=N\OC(C)(C)C(=O)O)c2csc(N)n2)C(=O)N1S(=O)(=O)O
amount permeated (starch gel membrane permeability; Gram-negative envelope surrogate; 200 µM, 90 min, pH 7.4): 4.92 nmol

COc1cccc(OC)c1-c1cc(C(=O)NC2(C(=O)O)C3CC4CC(C3)CC2C4)nn1-c1ccc(C(=O)N(C)CCCN(C)CCCN(C)C(=O)CN2CCN(CC(=O)[O-])CCN(CC(=O)[O-])CCN(CC(=O)[O-])CC2)cc1C(C)C.[177Lu+3] (stereo not drawn)
tissue uptake (mouse, HT-29 xenograft, kidney; 168 h post injection): 0.2 ± 0.04 %ID/g

A few entries again:
CC(C)c1nc(CN(C)C(=O)N[C@@H](CCN2CCOCC2)C(=O)N[C@H](CC[C@H](Cc2ccccc2)NC(=O)OCc2cncs2)Cc2ccccc2)cs1
drug-related TEAE (human; oral, 150 mg, drug interaction trial): 23.1%

O=C(O)c1ccc(OS(=O)(=O)O)c(O)c1
plasma concentration (human plasma; mean): 125 nM

CNC(=O)c1cc(Oc2ccc(NC(=O)Nc3cc(C(C)(C)C)nn3-c3ccc4ncccc4c3)c(F)c2)ccn1
patients with musculoskeletal disorder AE (measured: worst grade 2; human; oral, dose not given, cycles 1 and 2, Low Cmax subgroup): 6%

C[C@H]1CN(C(=O)CC#N)[C@]12CCN(c1ncnc3[nH]ccc13)C2
AUC(0-last) (healthy Japanese males, plasma; oral, 5 mg single dose): 167 ng·h/mL

[H]/N=C(/N)N[C@H]1[C@H](O)[C@@H](O)[C@H](O[C@@H]2O[C@@H](C)[C@](O)(C=O)[C@H]2O[C@@H]2O[C@@H](CO)[C@H](O)[C@@H](O)[C@@H]2NC)[C@@H](N/C(N)=N\[H])[C@@H]1O
amount permeated (starch gel membrane permeability; Gram-negative envelope surrogate; 200 µM, 90 min, pH 7.4): 3.06 nmol
